# Measured values of several laboratories.
# Each line is one published result; not all experiments were run side by side. Numbers after ± are the reported error.
# sfp: sfp (Bacillus subtilis, UniProt P39135)
Substance,target,assay,system,conditions,IC50
C=CCNc1ncnc2ccc(Br)cc12,ERRα (human),"reporter gene, antagonist, luciferase reporter qHTS",,,9440 nM
O=C(O)CSc1cc(NS(=O)(=O)c2ccc(Br)cc2)c2ccccc2c1O,"Induced myeloid leukemia cell differentiation protein Mcl-1, with Bax (MCL1, Homo sapiens, UniProt Q07820)","Bax binding, SPR",,,1430 nM
C[C@@H]1NC(=O)[C@@H]2CSSC[C@H](NC(=O)[C@H](CC(=O)O)NC(=O)[C@H](CC(=O)O)NC(=O)CNC(=O)[C@H](CC(=O)O)NC(=O)[C@H](Cc3ccc(O)cc3)NC1=O)C(=O)N[C@@H](CCCCN)C(=O)N[C@@H](CO)C(=O)N[C@@H](C)C(=O)N1CCC[C@H]1C(=O)N1CCC[C@H]1C(=O)N[C@@H](CO)C(=O)N2,"Lymphocyte function-associated antigen 3 (CD58, Homo sapiens, UniProt P19256)",,,,23 ± 46 nM
C=C(NC(=O)C(=C)NC(=O)c1csc(C2=N[C@@H]3c4csc(n4)[C@H]4NC(=O)c5csc(n5)[C@H]([C@](C)(O)[C@@H](C)O)NC(=O)[C@H]5CSC(=N5)/C(=C/C)NC(=O)[C@H]([C@@H](C)O)NC(=O)c5csc(n5)[C@]3(CC2)NC(=O)[C@H](C)NC(=O)C(=C)NC(=O)[C@H](C)NC(=O)[C@H]([C@@H](C)CC)N[C@@H]2C=Cc3c([C@H](C)O)cc(nc3[C@H]2O)C(=O)O[C@@H]4C)n1)C(N)=O,"PSMB6 (Homo sapiens, UniProt P28072)","caspase-like activity, inhibitor",purified 20S proteasome,"15 min preincubation, 37 °C, added: Ac-Nle-Pro-Nle-Asp-AMC substrate",590 ± 60 nM
CNc1ncnc2c1ncn2[C@H]1C[C@H](OP(=O)(O)O)[C@@H](COP(=O)(O)O)O1,sfp,,,,7700 nM
CC(C)c1cccc(C(C)C)c1S,"Hcn1 (Mus musculus, UniProt O88704)","channel gating (V1/2 shift), inhibitor, two-electrode voltage clamp",Xenopus oocytes,,22200 ± 1800 nM
O=C(CNC(=S)NN=Cc1ccc([N+](=O)[O-])cc1)c1ccc(-c2ccccc2)cc1,"Cholinesterase (BCHE, Equus caballus, UniProt P81908)","enzyme activity, inhibitor, Ellman method",,added: butyrylthiocholine iodide,212250 ± 90 nM
CN1C(=O)[C@]23SS[C@@]1(C)C(=O)N2[C@H]1Nc2ccccc2[C@@]1([C@@]12c4ccccc4N[C@@H]1N1C(=O)[C@@]4(C)SS[C@]1(C(=O)N4C)[C@H]2O)[C@@H]3O,"KMT2D (Homo sapiens, UniProt O14686)","methyltransferase activity, inhibitor",,added: 1 µM [3H]SAM,> 10000 nM
CC[C@H](C)[C@H](NC(=O)[C@H](CO)NC(=O)[C@H](Cc1ccc(O)cc1)NC(=O)[C@H](CC(=O)O)NC(=O)[C@H](CO)NC(=O)[C@@H](NC(=O)[C@H](Cc1ccccc1)NC(=O)[C@@H](NC(=O)CNC(=O)[C@@H](N)CCC(=O)O)[C@@H](C)O)[C@@H](C)CC)C(=O)N[C@@H](C)C(=O)N[C@@H](CC(C)C)C(=O)N[C@@H](CC(=O)O)C(=O)N[C@@H](CCCCN)C(=O)N[C@H](C(=O)N[C@@H](CCCNC(=N)N)C(=O)N[C@@H](CCC(N)=O)C(=O)N[C@@H](CCC(N)=O)C(=O)N[C@@H](CCC(=O)O)C(=O)N[C@@H](Cc1ccccc1)C(=O)N[C@H](C(=O)N[C@@H](CC(N)=O)C(=O)N[C@@H](Cc1c[nH]c2ccccc12)C(=O)N[C@@H](CC(C)C)C(=O)N[C@@H](CC(C)C)C(=O)N[C@@H](C)C(=O)N[C@@H](CCC(N)=O)C(=O)N[C@@H](CCCCN)C(N)=O)C(C)C)[C@@H](C)CC,"GIPR (Homo sapiens, UniProt P48546)","cAMP production, antagonist",BHK,"3 h, 37 °C, added: GIP 50 pM",16.2 nM
O=C(O)c1cc[c]([Hg][Cl])cc1,"Trypanothione synthetase (Trypanosoma brucei brucei, UniProt Q586P2)","enzyme activity, BIOMOL Green phosphate release",,1 h preincubation,2200 ± 50 nM
COc1ccc(N2CCN(Cc3cc(=O)oc4c(O)c(O)ccc34)CC2)cc1,"Gag-Pol polyprotein, reverse transcriptase p66/p51 (gag-pol, Human immunodeficiency virus type 1 group M subtype B, UniProt P04585)","RNase H activity, inhibitor",p66/p51 RT heterodimer,"pH 8.0, added: 10 mM Mg2+",700 nM
COCCCNc1c2c3c(cccc3[nH]c1=O)C(=O)c1ccccc1-2,"ROP18 (Toxoplasma gondii, UniProt Q2PAY2)","kinase activity, inhibitor",,added: peptide FL-8,> 10000 nM
CCCCCCCCCC(=O)N[C@@H](CCCN=C(N)N)C(=O)N[C@H](C(=O)N[C@@H](CCCCN)C(=O)N[C@@H](CCCN=C(N)N)C(=O)CCl)C(C)C,"Furin (FURIN, Homo sapiens, UniProt P09958)","enzyme activity, inhibitor, fluorescence",,,2.18 nM
CC[C@H](C)[C@H](NC(=O)[C@H](CC(N)=O)NC(=O)[C@H](Cc1c[nH]cn1)NC(=O)[C@@H](NC(=O)[C@H](CCC(N)=O)NC(=O)[C@H](CCCNC(=N)N)NC(=O)[C@H](CCSC)NC(=O)[C@H](C)N)[C@@H](C)O)C(=O)N[C@@H](Cc1ccccc1)C(=O)N[C@@H](Cc1ccccc1)C(=O)N[C@@H](CC(N)=O)C(=O)N[C@@H](Cc1ccccc1)C(=O)N[C@@H](Cc1ccccc1)C(=O)N[C@@H](CCCCN)C(=O)N[C@@H](CCCNC(=N)N)C(=O)N[C@@H](CCCNC(=N)N)C(=O)O,"histidine kinase ComD (Streptococcus pneumoniae serotype 4, UniProt A0A0H2US84)","reporter gene, antagonist","Streptococcus pneumoniae, TIGR4 comX::lacZ","30 min, 37 °C, added: CSP2 250 nM",> 10000 nM
CC(=O)OC[C@H]1O[C@@H]([S-])[C@H](OC(C)=O)[C@@H](OC(C)=O)[C@@H]1OC(C)=O.CCP(CC)CC.[Au+],"Thioredoxin glutathione reductase (Schistosoma mansoni, UniProt Q962Y6)","glutathione reductase activity, inhibitor",,"10 min preincubation with NADPH, added: 100 µM GSSG",5.4 nM
N#CCCc1ccc2c(c1)-c1[nH]c3ccc([N+](=O)[O-])cc3c1CC(=O)N2,"Putative glycogen synthase kinase (Leishmania major, UniProt Q4QE15)","enzyme activity, inhibitor",,"90 min, 30 °C, added: ATP 2 µM",1000 nM
CC1(C)C2C(=O)N(OC(=O)N3CCc4c(Br)cccc4C3)C(=O)C21 (stereo not drawn),"ABHD6 (Homo sapiens, UniProt Q9BV23)","enzyme activity, inhibitor, fluorescence",,,22 nM
O=C1Nc2ccc(S(=O)(=O)O)cc2C1=C1Nc2ccccc2C1=NO,"GSK3, short isoform (Trypanosoma brucei, UniProt Q388M1)","enzyme activity, inhibitor",,"90 min, 30 °C, added: ATP 2 µM",480 nM
C[C@@H]1C[C@H]2[C@@H]3CCC4=CC(=O)C=C[C@]4(C)[C@@]3(Cl)[C@@H](O)C[C@]2(C)[C@@]1(OC(=O)c1ccco1)C(=O)CCl,"ABCC1 (Homo sapiens, UniProt P33527)","efflux, inhibitor, flow cytometry",SupT1 cells overexpressing ABCC1,added: tetramethylrosamine 500 nM,3600 ± 2300 nM
Oc1ccc(-c2cc(Cl)cc(Cl)c2)cc1Cl,"Sulfotransferase 2A6 (Sult2a6, Rattus norvegicus, UniProt P22789)","enzyme activity, inhibitor",,"6 min, 37 °C, added: DHEA 10 µM",~50000 nM
COc1cccc(C(=O)C2CCN(CCc3ccc(F)cc3)CC2)c1OC,"HTR2A (Homo sapiens, UniProt P28223)","calcium signal, antagonist",,,34 nM
C/C=C1\NC(=O)[C@@H](NC(=O)[C@@H](NC(=O)[C@H](C)NC(=O)C/C(C)=C/Cl)[C@@H](C)CC)[C@@H](C)OC(=O)[C@H](C(C)C)NC(=O)[C@H](Cc2ccc(O)cc2)N(C)C(=O)[C@H](Cc2ccccc2)N2C(=O)[C@H](CC[C@H]2O)NC1=O,"Proteinase K (PROK, Engyodontium album, UniProt P06873)","enzyme activity, inhibitor, fluorescence",,pH 7.4,104 nM
CNCCCNC(=O)O[C@H]1CC[C@@]2(C)[C@H](CC[C@@H]3[C@@H]2CC[C@]2(C)[C@@H](c4ccc(=O)oc4)CC[C@]32O)C1,"Sodium/potassium-transporting ATPase subunit alpha-1, with beta-1 subunit (Atp1a1, Rattus norvegicus, UniProt P06685)","pump current, inhibitor, two-electrode voltage clamp",Xenopus oocytes expressing β1,-60 mV,107 nM
COc1ccc(NC(=O)N2CCCCN3[C@H](CN)[C@H](c4ccc(C#Cc5ccccc5)cc4)[C@@H]3C2)cc1,"Phenylalanine--tRNA ligase alpha subunit (Plasmodium falciparum, UniProt Q8I246, L550V)","enzyme activity, inhibitor",,,1300 nM
CC(C)C[C@H](NC(=O)OCc1ccccc1)C(=O)N[C@@H](CC1CCNC1=O)C(O)S(=O)(=O)O (stereo partly drawn),"Replicase polyprotein 1ab, main protease (Feline coronavirus, UniProt Q98VG9)","enzyme activity, inhibitor, FRET",,,180 nM
O=C1NCc2c1c1c3ccccc3[nH]c1c1[nH]c3ccccc3c21,ERRα (human),"reporter gene, antagonist, luciferase reporter qHTS",,,2660 nM
c1ccc(OCC2CCCN2)nc1 (stereo not drawn),"Neuronal acetylcholine receptor; alpha4/beta2 (Rattus norvegicus, UniProt P09483+P12390)","ligand displacement, radioligand",,cell membranes,115000 nM
CC1(C)CC(NC(=O)C(=O)Nc2ccc(Cl)cc2)CC(C)(C)N1,HIV-1 BG505 SOSIP.664,"inhibitor, competition ELISA",,10% DMSO,> 100000 nM
O=Nc1ccc2oc(=O)ccc2c1,sfp,"phosphopantetheinylation, inhibitor, fluorescence polarization",,"45 min, pH 7.6, 10% DMSO, added: VibB 10 µM and rhodamine-CoA 5 µM",3000 ± 1000 nM
Cc1ncccc1OC(=O)NCCCCCn1ccc2ccc(F)cc21,"Cholinesterase (BCHE, Equus caballus, UniProt P81908)","enzyme activity, inhibitor, HPLC",,,400 nM
CN1CC[C@@]2(C)c3cc(OC(=O)Nc4ccccc4)ccc3N(C)[C@@H]12,"Cholinesterase (BCHE, Homo sapiens, UniProt P06276)","enzyme activity, inhibitor, immobilized enzyme reactor, HPLC-UV",immobilized recombinant human enzyme,"rounded, used for carbamoylation",5000 nM
CCCCC(O)(Cn1cncn1)c1ccc(Cl)cc1Cl (stereo not drawn),"Androgen receptor (AR, Homo sapiens, UniProt P10275)","reporter gene, antagonist",T47D-ARE,"24 h, added: testosterone 20 nM",23200 nM
CCN1C(=Cc2ccc3ccccc3[n+]2CC)C=Cc2ccccc21,"SLC29A4 (Homo sapiens, UniProt Q7RTT9)","[3H]MPP+ uptake, inhibitor",HEK293 stably expressing SLC29A4,"10 min, room temperature, added: 10 nM [3H]MPP+",~1000 nM
echistatin,"Integrin alpha-V/beta-3 (Homo sapiens, UniProt P05106+P06756)","inhibitor, solid-phase binding",,added: vitronectin,4 nM
CC(C)NP(=O)(NC(C)C)OP(=O)(NC(C)C)NC(C)C,"Bche (Rattus norvegicus, UniProt Q9JKC1)","enzyme activity, inhibitor, radiometric","rat, adult, cortex homogenate","15 min, 37 °C",4000 nM
N#CC[C@H](C1CCCC1)n1cc(-c2ncnc3[nH]ccc23)cn1,"SLCO1B1 (Homo sapiens, UniProt Q9Y6L6)","transport, inhibitor",,"10 (unit not given), pre-incubation, added: estrone-3-sulfate",47900 ± 3600 nM
O=C(OC(C(F)(F)F)C(F)(F)F)N1CCN(Cc2cccc(Oc3ccccc3)c2)CC1,"Faah (Mus musculus, UniProt O08914)",competitive ABPP,mouse brain membrane proteome,,31000 nM
O=[N+]([O-])c1cc2nc(O)c(O)nc2cc1[N+](=O)[O-],"GBA1 (Homo sapiens, UniProt P04062, R534H)","enzyme activity, inhibitor",,"pH 5.9, 1.9 nM enzyme, added: 30 µM resorufin β-glucoside",4770 nM
Cc1ccc(OC(=O)NCCCCCn2ccc3ccc(F)cc32)cn1,"Cholinesterase (BCHE, Equus caballus, UniProt P81908)","enzyme activity, inhibitor, HPLC",,,360 nM
C/C=C(/C)C(=O)O[C@H]1C(C)=C2[C@H]([C@@H]1OC(=O)CCCCCCC)[C@@](C)(OC(C)=O)C[C@H](OC(=O)CCCCCCCCCCCNC(=O)C[C@H](N)C(=O)O)[C@@]1(O)[C@H]2OC(=O)[C@@]1(C)O,"ATP2A1 (Oryctolagus cuniculus, UniProt P04191)","enzyme activity, inhibitor",,,18 ± 2 nM
O=C(O)C(=O)C=C(O)c1cn(Cc2ccc(F)cc2)c2cc(N3CCCC3)ccc2c1=O,"Gag-Pol polyprotein, integrase (gag-pol, Human immunodeficiency virus 1, UniProt P12497)","enzyme activity, inhibitor",,,495 nM
COc1c(Br)cc(C(c2c(O)c3ccccc3oc2=O)c2c(O)c3ccccc3oc2=O)cc1Br,"MAL12 (Saccharomyces cerevisiae S288c, UniProt P53341)","enzyme activity, inhibitor, absorbance",,pH 6.9,3310 nM
O=C1C=C(N(Cc2ccc(Cl)nc2)CC(F)F)CO1,nicotinic acetylcholine receptor Musca domestica,"binding, displacement, radioligand displacement",housefly head membranes,added: [3H]imidacloprid,2.38 ± 1.93 nM
CCc1ccc(C(=O)NCCCC[C@H](NC(=O)[C@H](Cc2ccc(C(F)(F)P(=O)(O)O)cc2)NC(=O)[C@H](Cc2ccccc2)NC(=O)CO[C@H]2C[C@@H](C)CC[C@@H]2C(C)C)C(N)=O)cc1,"PTPN2 (Homo sapiens, UniProt P17706)","enzyme activity, inhibitor",,"enzyme preincubated 30 min, added: pNPP substrate",8.7 ± 1.4 nM
CC1=C(C(=O)NC(=O)c2cnccn2)C(c2cccc([N+](=O)[O-])c2)NC(=O)N1 (stereo not drawn),"Cholinesterase (BCHE, Equus caballus, UniProt P81908)",,,,5930 ± 10 nM

# Repeated from above:
Substance,target,assay,system,conditions,IC50
O=C1NCc2c1c1c3ccccc3[nH]c1c1[nH]c3ccccc3c21,ERRα (human),"reporter gene, antagonist, luciferase reporter qHTS",,,2660 nM
c1ccc(OCC2CCCN2)nc1 (stereo not drawn),"Neuronal acetylcholine receptor; alpha4/beta2 (Rattus norvegicus, UniProt P09483+P12390)","ligand displacement, radioligand",,cell membranes,115000 nM
